Results collected from several papers.
Lines come from different studies, so protocols differ.
Method: steady-state kinetics
B1: HCT R356D (Coleus scutellarioides, UniProt E8ZAP2); chain MKIHVRDSTLVRPSAATPAVSLWNSNVDLVVPNFHTPSVYFYRPSGADNFFDTAVMKAALGRALVSFYPMAGRLKRDEDGRVEIDCNAEGVLFVEAESDGTVDDYGDFAPSLELRRLIPAVDYSQGISAYPLLVLQVTFFKCGGVSLGVGMQHHAADGFSGLHFINTWSDMARGLDITLPPFIDRTLLSARDPPQPQFKHVEYQPPPAMKTYEPAETVVSIFKLTKDQLTTLKAKSKEDGNTTTYSSYEMLSGHVWRCTCLARGLPEEQETKLYIATDGRSRLQPQLPPGYFGNVIFTATPLAVAGDLGSKPVWYAASKIHDALARMDNDYLRSALDFLELQPDLKALVRGAHTFDCPNLGITSWVRLPIHDADFGWGRPIFMGPGGIAYEGLSFVLPSPTNDGSLSVAISLQAEHMKLFEKLLYQI
B2: Mj-MAT W387F/Y170W (Methanocaldococcus jannaschii, UniProt Q58605); chain MRNIIVKKLDVEPIEERPTEIVERKGLGHPDSICDGIAESVSRALCKMYMEKFGTILHHNTDQVELVGGHAYPKFGGGVMVSPIYILLSGRATMEILDKEKNEVIKLPVGTTAVKAAKEYLKKVLRNVDVDKDVIIDCRIGQGSMDLVDVFERQKNEVPLANDTSFGVGWAPLSTTERLVLETERFLNSDELKNEIPAVGEDIKVMGLREGKKITLTIAMAVVDRYVKNIEEYKEVIEKVRKKVEDLAKKIADGYEVEIHINTADDYERESVYLTVTGTSAEMGDDGSVGRGNRVNGLITPFRPMSMEAASGKNPVNHVGKIYNILANLIANDIAKLEGVKECYVRILSQIGKPINEPKALDIEIITEDSYDIKDIEPKAKEIANKFLDNIMEVQKMIVEGKVTTF
B3: MSS116 Q412A (Saccharomyces cerevisiae, UniProt P15424); chain LYNDGNRDQRNFGRNQRNNNSNRYRNSRFNSRPRTRSREDDDEVHFDKTTFSKLIHVPKEDNSKEVTLDSLLEEGVLDKEIHKAITRMEFPGLTPVQQKTIKPILSSEDHDVIARAKTGTGKTFAFLIPIFQHLINTKFDSQYMVKAVIVAPTRDLALQIEAEVKKIHDMNYGLKKYACVSLVGGTDFRAAMNKMNKLRPNIVIATPGRLIDVLEKYSNKFFRFVDYKVLDEADRLLEIGFRDDLETISGILNEKNSKSADNIKTLLFSATLDDKVQKLANNIMNKKECLFLDTVDKNEPEAHERIDQSVVISEKFANSIFAAVEHIKKQIKERDSNYKAIIFAPTVKFTSFLCSILKNEFKKDLPILEFHGKITANKRTSLVKRFKKDESGILVCTDVGARGMDFPNVHEVLQIGVPSELANYIHRIGRTARSGKEGSSVLFICKDELPFVRELEDAKNIVIAKQEKYEPSEEIKSEVLEAVTEEPEDISDIVISLISSYRSCIKEYRFSERRILPEIASTYGVLLNDPQLKIPVSRRFLDKLGLSRSPIGKAMFEIRDYSSRDGNNKSYDYDDDSEISFRGNKNYNNRSQNRDYDDEPFRRSNNNRRSFSRSNDKNNYSSRNSNIY
B4: HGXPRT (Trypanosoma cruzi, UniProt Q4DRC3); chain MISSQQAMVHVVSRNAEGVIVVDGKAYPMAEELVATESVIQRSIKAVAKQIADFYRPLSHRDTHGGGGVAPISDENPLIIISVLKGSYIFTADMVRYLGDYGLPHVVDFLRVASYRGTSSTNKMKLLAETQFKALRGKHVLILEDIVDSGKTLRYILDKVQREHQPATLKVCVLADKPGGRRVTMQPDFVCLTVPNKYVIGYGFEVNDRFRCFRHIFTLRPGEARRYPAHL
B5: Paox H64A (Mus musculus, UniProt Q8C0L6); chain MAFPGPRVLVVGSGIAGLGAAQKLCSHRAAPHLRVLEATASAGGRIRSERCFGGVVELGAHWIAGPSQDNPVFQLAAEFGLLGEKELSEENQLVDTGGHVALPSMIWSSSGTSVSLELMTEMARLFYGLIERTREFLNESETPMASVGEFLKKEISQQVASWTEDDEDTRKRKLAILNTFFNIECCVSGTHSMDLVALAPFGEYTVLPGLDCILAGGYQGLTDRILASLPKDTVAFDKPVKTIHWNGSFQEAAFPGETFPVLVECEDGARLPAHHVIVTVPLGFLKEHQDTFFEPPLPAKKAEAIKKLGFGTNNKIFLEFEEPFWEPDCQFIQVVWEDTSPLQDTALSLQDTWFKKLIGFLVQPSFESSHVLCGFIAGLESEFMETLSDEEVLLSLTQVLRRVTGNPQLPAAKSVRRSQWHSAPYTRGSYSYVAVGSTGDDLDLMAQPLPEDGTGTQLQVLFAGEATHRTFYSTTHGALLSGWREADRLVSLWDSQVEQSRPRL
B6: YdjH (Escherichia coli, UniProt P77493); chain MDNLDVICIGAAIVDIPLQPVSKNIFDVDSYPLERIAMTTGGDAINEATIISRLGHRTALMSRIGKDAAGQFILDHCRKENIDIQSLKQDVSIDTSINVGLVTEDGERTFVTNRNGSLWKLNIDDVDFARFSQAKLLSLASIFNSPLLDGKALTEIFTQAKARQMIICADMIKPRLNETLDDICEALSYVDYLFPNFAEAKLLTGKETLDEIADCFLACGVKTVVIKTGKDGCFIKRGDMTMKVPAVAGITAIDTIGAGDNFASGFIAALLEGKNLRECARFANATAAISVLSVGATTGVKNRKLVEQLLEEYEG
UniProt J9VYP5, sequence (whole entry, looked up): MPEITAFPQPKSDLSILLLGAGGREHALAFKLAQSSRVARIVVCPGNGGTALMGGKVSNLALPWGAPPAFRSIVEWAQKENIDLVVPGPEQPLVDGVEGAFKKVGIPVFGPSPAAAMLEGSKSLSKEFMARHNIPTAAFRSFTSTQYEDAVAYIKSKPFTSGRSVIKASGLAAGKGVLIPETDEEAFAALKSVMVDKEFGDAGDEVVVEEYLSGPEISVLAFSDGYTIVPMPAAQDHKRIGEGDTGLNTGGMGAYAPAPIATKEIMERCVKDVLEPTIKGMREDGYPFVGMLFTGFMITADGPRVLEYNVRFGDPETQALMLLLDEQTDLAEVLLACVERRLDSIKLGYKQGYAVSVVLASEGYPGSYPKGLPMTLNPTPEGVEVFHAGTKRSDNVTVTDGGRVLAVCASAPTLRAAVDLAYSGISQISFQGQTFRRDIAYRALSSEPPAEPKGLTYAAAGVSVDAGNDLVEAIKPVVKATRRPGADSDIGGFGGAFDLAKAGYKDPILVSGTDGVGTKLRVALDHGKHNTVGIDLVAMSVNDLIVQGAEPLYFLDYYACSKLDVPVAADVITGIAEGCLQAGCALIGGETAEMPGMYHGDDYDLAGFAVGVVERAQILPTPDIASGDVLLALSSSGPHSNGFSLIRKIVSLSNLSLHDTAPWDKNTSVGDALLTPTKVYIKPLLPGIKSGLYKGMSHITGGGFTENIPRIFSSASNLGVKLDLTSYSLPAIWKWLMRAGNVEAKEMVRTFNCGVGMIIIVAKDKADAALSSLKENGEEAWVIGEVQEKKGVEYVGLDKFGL
UniProt E9AE57, sequence (whole entry, looked up): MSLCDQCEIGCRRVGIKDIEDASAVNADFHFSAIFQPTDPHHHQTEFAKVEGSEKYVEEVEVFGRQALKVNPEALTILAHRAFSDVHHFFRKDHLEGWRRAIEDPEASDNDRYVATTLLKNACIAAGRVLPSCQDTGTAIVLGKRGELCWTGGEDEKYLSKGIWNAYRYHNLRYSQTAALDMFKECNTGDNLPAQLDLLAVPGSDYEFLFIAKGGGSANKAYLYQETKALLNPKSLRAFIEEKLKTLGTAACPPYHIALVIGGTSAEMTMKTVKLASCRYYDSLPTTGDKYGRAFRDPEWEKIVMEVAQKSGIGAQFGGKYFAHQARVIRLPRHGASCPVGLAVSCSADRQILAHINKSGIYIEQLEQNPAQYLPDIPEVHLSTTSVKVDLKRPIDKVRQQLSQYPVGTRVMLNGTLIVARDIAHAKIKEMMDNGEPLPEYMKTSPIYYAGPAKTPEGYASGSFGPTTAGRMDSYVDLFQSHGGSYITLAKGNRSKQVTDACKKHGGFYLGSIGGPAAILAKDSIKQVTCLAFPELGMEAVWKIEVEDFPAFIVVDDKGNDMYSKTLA

enzyme (Leishmania major, UniProt E9AE57)
Km (O=C(O)C[C@H](O)C(=O)O): 11500 µM

B1 (HCT R356D)
Km (NCCc1ccc(O)c(O)c1; pH 8, pseudo-first-order, added: p-coumaroyl CoA): 49400 µM

B2 (Mj-MAT W387F/Y170W)
Km (CSCC[C@H](N)C(=O)O; 55 °C, added: ATP 2.5 mM, methionine 0.05-1 mM): 1000 µM

B3 (MSS116 Q412A)
Km (Nc1ncnc2c1ncn2[C@@H]1O[C@H](COP(=O)(O)OP(=O)(O)OP(=O)(O)O)[C@@H](O)[C@H]1O; pH 7.5, 37 °C, added: ATP): 143 µM

enzyme (Vitis vinifera, UniProt F6H697)
Km (O=C(O)Cc1c[nH]c2ccccc12; pH 8.6, 25 °C): 10.4 µM

ADE5,7 (Cryptococcus neoformans, UniProt J9VYP5)
Km (Nc1ncnc2c1ncn2[C@@H]1O[C@H](COP(=O)(O)OP(=O)(O)OP(=O)(O)O)[C@@H](O)[C@H]1O; pH 8, 37 °C, apparent): 48 µM

enzyme (Actinoalloteichus caeruleus, UniProt M1F4W9)
Km (CSc1c(O)cc(-c2ccccn2)nc1C(=O)N[C@@H](CC(C)C)C(=O)O; pH 8, 30 °C): 440 µM

B4 (HGXPRT)
Km (Nc1nc2nc[nH]c2c(=O)[nH]1; pH 8.3, 37 °C, apparent, added: PRPP): 30 µM

B5 (Paox H64A)
Km (c1ccc(CNCCCCNCc2ccccc2)cc1; pH 8.6, 30 °C): 270 µM

B6 (YdjH)
Km (OC[C@H]1O[C@H](CO)[C@@H](O)[C@@H]1O; pH 7.4, 30 °C, KCl 100 mM, added: ATP 2.0 mM, MgCl2 5.0 mM): 44000 µM

Ptb (Listeria monocytogenes, UniProt Q8Y7B7)
Km (CC(C)CC(=O)SCCNC(=O)CCNC(=O)[C@H](O)C(C)(C)COP(=O)(O)OP(=O)(O)OC[C@H]1O[C@@H](n2cnc3c(N)ncnc32)[C@H](O)[C@@H]1OP(=O)(O)O; pH 7.5, 25 °C, apparent): 53.2 µM

Excerpt of the above:
Ptb (Listeria monocytogenes, UniProt Q8Y7B7)
Km (CC(C)CC(=O)SCCNC(=O)CCNC(=O)[C@H](O)C(C)(C)COP(=O)(O)OP(=O)(O)OC[C@H]1O[C@@H](n2cnc3c(N)ncnc32)[C@H](O)[C@@H]1OP(=O)(O)O; pH 7.5, 25 °C, apparent): 53.2 µM
